Experimental data from different studies.
Compare with care: the assays were run in different laboratories. Several values in a cell are separate wells, animals, samples, runs or records. ± gives the spread as reported.

| SMILES | target | assay | system | setting | scale | endpoint | value |
| --- | --- | --- | --- | --- | --- | --- | --- |
| Fc1ccc(Nc2nc(NC3CCCCC3)c3cc(C(F)(F)F)ccc3n2)cc1F | β2AR/β1AR ICL1 chimera | β-arrestin2 recruitment, antagonist, BRET |  |  | reference: isoprenaline maximal response | maximal inhibition | -1% |
| Cc1cn(CC(=O)N(CC(=O)N[C@H]2COC[C@@H]2N(CC(=O)NCCOCCOCC(N)=O)C(=O)Cn2cnc3c(N)ncnc32)[C@H]2COC[C@@H]2NC(=O)CN(C(=O)Cn2cnc3c(N)ncnc32)[C@H]2COC[C@@H]2NC(=O)CN(C(=O)Cn2cnc3c(=O)[nH]c(N)nc32)[C@H]2COC[C@@H]2NC(=O)CN(C(=O)Cn2cc(C)c(=O)[nH]c2=O)[C@H]2COC[C@@H]2NC(=O)CN(C(=O)Cn2cnc3c(=O)[nH]c(N)nc32)[C@H]2COC[C@@H]2NC(=O)CN(C(=O)Cn2cc(C)c(=O)[nH]c2=O)[C@H]2COC[C@@H]2NC(=O)CN(C(=O)Cn2cnc3c(N)ncnc32)[C@H]2COC[C@@H]2NC(=O)CN(C(=O)Cn2cnc3c(=O)[nH]c(N)nc32)[C@H]2COC[C@@H]2N)c(=O)[nH]c1=O | mismatched DNA TT | duplex formation, UV melting |  |  | reference: complementary DNA | ΔTm | -18.8 °C |
| NCCOc1cc(NC(=O)c2cc(OCc3cn(Cc4ccc(C(=O)O)cc4)nn3)cc(C(=O)Nc3cc(OCCN)c4ccccc4n3)n2)nc2ccccc12 | human telomeric G-quadruplex DNA | FRET melting |  | 1 µM, pH 7.4, together with: 60 mM potassium |  | ΔTm | 6.3 ± 0.4 K |
| c1ccc(-c2n[nH]cc2-c2ccnc3ccccc23)nc1 | CDC7 (Candida albicans) | kinase binding, MIB/MS competition | Candida albicans lysate | 10 µM | reference: DMSO | log2 fold change | -0.1 |
| C[n+]1ccc(/C=N/NC(=O)c2cccc(C(=O)N/N=C/c3cc[n+](C)c4ccccc34)n2)c2ccccc21 | telomeric antiparallel G-quadruplex DNA | UV melting |  | 6 µM, 10 mM potassium, together with: DNA 3 µM |  | delta Tm | 30.4 °C |
| Fc1ccc(Nc2nc(NC3CCCCC3)c3ccccc3n2)cc1F | β2AR/β1AR ICL1 chimera | β-arrestin2 recruitment, antagonist, BRET |  |  | reference: isoprenaline maximal response | maximal inhibition | 3.7% |
| C=CC(=O)N1[C@@H](c2ccc3c(c2)OCO3)c2[nH]c3ccccc3c2C[C@H]1C(=O)N1CCN(C)CC1 | human cyclin E1 N112C-3xFLAG:CDK2 | co-IP with TMT proteomics, item: SDHB |  | concentration not given, P21912 | reference: wild type DMSO | relative co-enrichment | 146% |
| NCCOc1cc(NC(=O)c2cc(OCc3cn([C@H]4O[C@@H](CO)[C@H](O)[C@@H](O)[C@@H]4O)nn3)cc(C(=O)Nc3cc(OCCN)c4ccccc4n3)n2)nc2ccccc12 | human telomeric G-quadruplex DNA | FRET melting |  | 1 µM, pH 7.4, together with: 60 mM potassium |  | ΔTm | 30 ± 1 K |
| CC1(C)OCCc2cc(C(=O)N3CCC(c4nc(-c5ccccc5)n[nH]4)CC3)ccc21 | FSP1, ancestral | resazurin reduction, inhibitor |  | pH 7.2, together with: NADH, resazurin |  | IC50 | 382 ± 70 nM |
| N[C@H]1CC[C@H](Nc2nccc(-c3cccnc3Oc3ccc(NC(=O)NC4CC4)c4ccccc34)n2)CC1 | NCK1 and NCK2 (human) | kinobead competition pulldown | HEK293/HCT116 lysate mixture | 10 µM, 1 h, 4 °C | lower = stronger competition | log2 LFQ intensity | 20 and 20.2 and 18.8 and 20.4 |
| Nc1ncc(-c2cc(-c3cnn(CC(F)(F)F)c3)ncc2F)nc1C(=O)NC1CNCC(F)C1 (centres unmarked) | YES | KINOMEscan competition binding |  | 1 µM | reference: DMSO control | remaining binding | 83% |
| Cc1ccc(S(=O)(=O)N2N=Cc3ccsc3B2O)cc1 | human pancreatic trypsin | enzyme activity, inhibitor |  |  |  | IC50 | > 100000 nM |
| C=CC(=O)Nc1cccc(Cn2ncc3cnc(Nc4cnn(CCOC)c4)nc32)c1 | PIK3CA human | binding, KINOMEscan |  | 100 nM | lower = stronger binding | percent of control | 80% |
| Fc1ccc(Nc2nc(NC3CCCCC3)c3cc(Br)ccc3n2)cc1F | β2AR/β1AR ICL1 chimera | β-arrestin2 recruitment, antagonist, BRET |  | together with: isoprenaline 1 µM |  | pIC50 | 6.2 |
| CC[C@H](C)[C@H](NC(=O)[C@@H]1CCCN1C(=O)[C@@H](NC(=O)[C@H](C)N)C(C)C)C(=O)N[C@@H](C)C(=O)N[C@@H](CCC(N)=O)C(=O)N[C@@H](CCCCN)C(=O)N[C@@H](CO)C(=O)N[C@@H](CCC(=O)O)C(=O)N1CCC[C@H]1C(=O)N[C@@H](Cc1ccccc1)C(=O)N[C@@H](CCCCN)C(=O)N[C@@H](CCCCN)C(=O)N[C@@H](CCCCN)C(=O)N[C@@H](CCCCNC(=O)CCCCCNC(=S)Nc1ccc2c(c1)C(=O)OC21c2ccc(O)cc2Oc2cc(O)ccc21)C(N)=O | XIAP (human) | DIABLO peptide pull-down |  | concentration not given, 10-fold competition | reference: empty beads | log2 fold change | 10.9 |
| C[n+]1cc(NC(=O)c2ccc3ccc4ccc(C(=O)Nc5cc6ccccc6[n+](C)c5)nc4c3n2)cc2ccccc21 | telomeric antiparallel G-quadruplex DNA | UV melting |  | 3 µM, 10 mM potassium, together with: DNA 3 µM |  | delta Tm | 4 °C |
| CC(C)c1ccc(N(C)c2ccc3c(c2)OCC[C@H]3CNc2cnccc2C(=O)O)cc1 | KDM4A-D | enzyme activity, inhibitor |  |  |  | IC50 | ≤ 80 nM |

Some of these lines once more:
| SMILES | target | assay | system | setting | scale | endpoint | value |
| --- | --- | --- | --- | --- | --- | --- | --- |
| Cc1ccc(S(=O)(=O)N2N=Cc3ccsc3B2O)cc1 | human pancreatic trypsin | enzyme activity, inhibitor |  |  |  | IC50 | > 100000 nM |
| C=CC(=O)Nc1cccc(Cn2ncc3cnc(Nc4cnn(CCOC)c4)nc32)c1 | PIK3CA human | binding, KINOMEscan |  | 100 nM | lower = stronger binding | percent of control | 80% |
